Results pooled from the literature.
Protocols differ between the studies behind these lines. Several values in a cell are separate wells, animals, samples, runs or records.
Target: Mitogen-activated protein kinase 11 (MAPK11, Homo sapiens, UniProt Q15759)

Compound | assay | system | conditions | scale | quantity | value
COCC12C(=O)NC3C4(C(OC)CC1O)C1CC5(O)C(OC)C(O)C(OC(C)=O)(C1C5OC(=O)c1ccccc1)C3(O)C(OC)C24 (stereo not drawn) | kinase activity, inhibitor, ProQinase kinase profiling |  | 25 µM | relative to: control | remaining activity | 109% and 106%
Cc1ccc(C)c(-c2ccc3nc(NC(=O)C4CCCCC4)nn3c2)c1 | enzyme activity, Dundee kinase panel |  | 10 µM |  | remaining activity | 79%
Nc1ncc(-c2cc(-c3cnn(CC(F)(F)F)c3)ncc2F)nc1C(=O)NC1CNCC(F)C1 (stereo not drawn) | enzyme activity |  | 1 µM | relative to: DMSO control | remaining activity | 94.2%
COc1ccc(NC(=O)Nc2ccc3c(c2)C(=O)N(C(C)CO)CC(C)C(CN(C)Cc2ccc4c(c2)OCO4)O3)cc1 (stereo not drawn) | binding, competition with immobilised ligand |  | 10 µM |  | remaining binding | 87%
CNC1C[S+]2CC[S+]3CC[S+](C1)[Ru-4]321([N]=C=S)[n]2c3ccc(OC)cc3c3c4c(c5cc(F)c[n+]1c5c32)C(=O)NC4=O (stereo not drawn) | KinomeScan |  | 0.1 µM | relative to: untreated | remaining binding | 83%
CNS(=O)(=O)Nc1nccc(Cc2c(C)c3ccc(Oc4ncccc4F)cc3oc2=O)c1F | binding, competition with immobilised ligand |  | 10 µM |  | remaining binding | 90%
C=C1CCCCCCCCCC(CO)C1=O (stereo not drawn) | cell-free assay, competition with immobilised ligand |  | 10 µM |  | remaining binding | 96%
C=CC(=O)N1Cc2nc(-c3cc(-c4cc(Cl)cnc4Cl)c(F)cc3F)n(-c3ccncn3)c2C1 | cell-free assay, inhibitor |  | 1 µM |  | inhibition | 6.1%
CS(=O)(=O)Nc1cccc(-c2csc3cnc(Nc4ccc(N5CCN(CCCCCOc6cccc7c6C(=O)N(C6CCC(=O)NC6=O)C7=O)CC5)cc4)nc23)c1 (stereo not drawn) | kinase probe labelling, binder, KiNativ ATP-acylphosphate LC-MS | MOLT-4 live cells | 1 µM |  | inhibition | -12.9%
COc1c(OCCCN2CCOCC2)ccc2c1N=C(NC(=O)c1cnc(N)nc1)N1CCN=C21 | kinase activity, inhibitor |  | 1 µM | relative to: untreated control | remaining activity | 99%
Cc1cccc(O[C@H]2CCC[C@@H](C(C)CNCc3ccncc3)C2)c1 (relative stereo) | enzyme activity, inhibitor |  | 1 µM |  | inhibition | 3%
CC(C)=CC1OC(C)(C)C2C=C3C(=O)C(Cl)=CC(O)C3C3C(O)C4OC4C(=O)C132 (stereo not drawn) | cell-free assay, competition with immobilised ligand |  | 10 µM |  | remaining binding | 97%
Cc1cccc(-c2ccc3nc(NC(=O)C4CCCO4)nn3c2)c1 (stereo not drawn) | enzyme activity, Dundee kinase panel |  | 10 µM |  | remaining activity | 91%
C=CC(=O)Nc1cccc(-c2cnc3[nH]cc(C(=O)NC(C)(C)C)c3n2)c1 | kinase activity |  | 0.1 µM |  | inhibition | 3% and 0%
C=CC(=O)N1CCCC(n2c(=O)c3ncccc3n(Cc3ccc(Oc4ccccc4)cc3)c2=O)C1 (stereo not drawn) | cell-free assay, competition with immobilised ligand |  | 1 µM |  | remaining binding | 87%
